Published values pooled from the literature.
Every numbered part comes from another study and shows a few of its results, in no order.

Study 1
Target: Myc proto-oncogene protein, bHLH-zipper, MAX partner unstated (MYC, Homo sapiens, UniProt P01106, residues 368-449)
Sequence of UniProt P01106 (368-449, looked up): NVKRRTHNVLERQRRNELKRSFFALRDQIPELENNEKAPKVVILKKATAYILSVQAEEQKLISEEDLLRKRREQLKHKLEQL
Technique: protein-binding microarray
Form: double-stranded DNA, one strand shown
Medium: in vitro
Tested at: not given
Notes: k-mer, scored over probes, only values ≥0.25
Reading: higher = stronger binding
`CACGCTGG` gave an E-score of 0.344.
With `CGCGCACA` the E-score was 0.334.
`AGTCACGC` gave an E-score of 0.394.
For `ATGCGCCA`, the E-score was 0.303.
With `CATGCCGG` the E-score was 0.38.
The E-score of `GTGGAGCA` is reported as 0.268.
`CGCCTGGC` has an E-score of 0.254.
With `ACGTGTTC` the E-score was 0.415.
For `CATGCCAG`, the E-score was 0.335.
`TACCACGA` gave an E-score of 0.368.
With `CAATGTGG` the E-score was 0.355.

Study 2
Target: Sal-like protein 4, full length isoform A (SALL4, Homo sapiens, UniProt Q9UJQ4, residues 1-1053)
Sequence of UniProt Q9UJQ4 (whole entry, looked up): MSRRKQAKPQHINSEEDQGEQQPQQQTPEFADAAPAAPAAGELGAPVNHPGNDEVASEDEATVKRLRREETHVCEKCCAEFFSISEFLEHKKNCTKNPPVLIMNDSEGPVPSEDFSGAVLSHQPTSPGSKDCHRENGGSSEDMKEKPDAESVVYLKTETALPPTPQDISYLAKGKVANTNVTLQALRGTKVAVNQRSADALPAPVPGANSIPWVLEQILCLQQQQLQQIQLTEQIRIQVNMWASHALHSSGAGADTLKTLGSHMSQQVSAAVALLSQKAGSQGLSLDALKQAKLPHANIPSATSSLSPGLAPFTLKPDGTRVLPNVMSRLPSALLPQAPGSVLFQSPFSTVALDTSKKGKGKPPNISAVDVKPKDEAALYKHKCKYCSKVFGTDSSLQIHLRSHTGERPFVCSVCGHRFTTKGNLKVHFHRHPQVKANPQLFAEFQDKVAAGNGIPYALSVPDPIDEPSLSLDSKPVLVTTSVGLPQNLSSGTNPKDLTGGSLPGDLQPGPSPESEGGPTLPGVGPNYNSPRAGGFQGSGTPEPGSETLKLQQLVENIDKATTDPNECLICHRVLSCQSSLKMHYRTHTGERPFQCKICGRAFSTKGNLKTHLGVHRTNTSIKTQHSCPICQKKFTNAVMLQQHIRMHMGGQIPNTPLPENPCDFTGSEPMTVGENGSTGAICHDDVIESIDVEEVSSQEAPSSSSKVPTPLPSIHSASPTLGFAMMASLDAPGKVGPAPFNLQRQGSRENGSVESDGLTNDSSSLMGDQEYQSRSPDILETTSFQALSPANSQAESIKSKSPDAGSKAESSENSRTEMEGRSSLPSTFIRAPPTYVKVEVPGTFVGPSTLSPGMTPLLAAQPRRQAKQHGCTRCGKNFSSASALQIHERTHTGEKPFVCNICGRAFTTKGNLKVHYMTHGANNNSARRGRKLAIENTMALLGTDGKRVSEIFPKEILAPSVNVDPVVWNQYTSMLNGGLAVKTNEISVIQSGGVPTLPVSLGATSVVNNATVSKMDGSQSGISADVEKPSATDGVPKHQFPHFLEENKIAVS
Technique: universal PBM
Form: double-stranded DNA, one strand shown
Medium: in vitro
Tested at: 600 nM
Notes: 8-mer, flanks averaged, mean of replicates
Reading: higher = stronger binding
`CAAAAAGG` gave an E-score of 0.0751.
With `AGACCTAT` the E-score was 0.215.
`CGAGCAAC` has an E-score of -0.203.
`AAGACCCA` gave an E-score of -0.246.
For `CGTAGGAA`, the E-score was -0.0727.
`ATTACGTA` has an E-score of 0.301.
The E-score of `AGCTTAAT` is reported as 0.188.
`GACATGAA` gave an E-score of 0.247.
For `CAAGTGGG`, the E-score was -0.0715.

Study 3
Target: Centromere-binding protein 1, full length, N-terminal tag (CBF1, Saccharomyces cerevisiae, UniProt P17106, residues 1-351)
Sequence of UniProt P17106 (whole entry, looked up): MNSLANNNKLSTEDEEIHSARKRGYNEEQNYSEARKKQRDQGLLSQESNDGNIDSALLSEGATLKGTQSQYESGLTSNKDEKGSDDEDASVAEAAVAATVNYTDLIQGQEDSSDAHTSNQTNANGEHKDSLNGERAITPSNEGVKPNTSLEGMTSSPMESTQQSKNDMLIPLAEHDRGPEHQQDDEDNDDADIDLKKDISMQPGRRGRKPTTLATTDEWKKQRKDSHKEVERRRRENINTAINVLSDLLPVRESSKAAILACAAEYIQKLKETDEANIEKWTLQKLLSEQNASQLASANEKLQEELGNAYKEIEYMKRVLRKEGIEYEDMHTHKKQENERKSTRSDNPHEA
Technique: protein-binding microarray
Form: double-stranded DNA, one strand shown
Medium: in vitro
Tested at: 0.8 µM
Notes: whole 60-bp probe, no competitor
Reading: higher = stronger binding
`CTAATCTATCTAAAAAGCGTGATTTTTCCCACGTTCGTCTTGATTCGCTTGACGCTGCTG` has a fluorescence intensity of 659 a.u.
For `CTATGGTGCCCGTATCTGATGTTTTTTTAGTAATTCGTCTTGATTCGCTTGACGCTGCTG`, the fluorescence intensity was 496 a.u.
With `GAAAGTGGCTACCATCATGAGATATGATATTCTTAGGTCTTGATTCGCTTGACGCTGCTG` the fluorescence intensity was 550 a.u.
`GAACACTGGTACTGGCACGGGTGTTTGGAAAAATAGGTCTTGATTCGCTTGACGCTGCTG` gave a fluorescence intensity of 610 a.u.
For `CTATGTTCTTTCCATCACGAAAGTGACTTCATTTTCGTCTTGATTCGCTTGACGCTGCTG`, the fluorescence intensity was 597 a.u.
`CTAAGCTTTTCAAATCACGCAATGGAATATTTGTTCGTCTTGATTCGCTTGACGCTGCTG` has a fluorescence intensity of 750 a.u.
`TGTACGAAGCTATATCACGTTAGTATAGTAGTTAGGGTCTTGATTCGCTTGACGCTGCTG` gave a fluorescence intensity of 756 a.u.
With `GAAGTCATGCAATATCTCGTGTTGTTATCCACCTAGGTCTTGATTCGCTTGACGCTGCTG` the fluorescence intensity was 579 a.u.
`CTAATTAGTCCCTTGCACGTTCATAGTGAAAATTTCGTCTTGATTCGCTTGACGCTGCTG` gave a fluorescence intensity of 597 a.u.
`CTATTGGTTAGAACTTTCGTGATAATTTATTTTTTCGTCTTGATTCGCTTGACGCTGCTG` gave a fluorescence intensity of 552 a.u.
With `GAAGCGTGTTCTAGTCACGAAACGCGCCAAAAATAGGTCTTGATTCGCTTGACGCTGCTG` the fluorescence intensity was 594 a.u.

Mixed results
With `PhoQ, residues 284 288 289 292 302 303 SLGVVW` the fold induction was 12.8 (PhoP, residues 12 14 15 18 19 NQGLL (Escherichia coli, UniProt P23836); Sort-seq, refers to: YFP reporter; E. coli; PhoQ-PhoP variant library, with: 10 µM Mg2+; reference: high Mg2+ state, higher = stronger signaling).

Some of these lines once more (study 3):
`CTAAGCTTTTCAAATCACGCAATGGAATATTTGTTCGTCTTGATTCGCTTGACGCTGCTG` has a fluorescence intensity of 750 a.u.
`TGTACGAAGCTATATCACGTTAGTATAGTAGTTAGGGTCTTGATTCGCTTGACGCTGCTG` gave a fluorescence intensity of 756 a.u.
With `GAAGTCATGCAATATCTCGTGTTGTTATCCACCTAGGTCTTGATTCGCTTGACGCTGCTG` the fluorescence intensity was 579 a.u.
`CTAATTAGTCCCTTGCACGTTCATAGTGAAAATTTCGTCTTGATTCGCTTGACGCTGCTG` gave a fluorescence intensity of 597 a.u.
